Measured values of several laboratories.
Compare with care: the assays were run in different laboratories. ± gives the spread as reported.
UniProt P28845, sequence (whole entry, looked up): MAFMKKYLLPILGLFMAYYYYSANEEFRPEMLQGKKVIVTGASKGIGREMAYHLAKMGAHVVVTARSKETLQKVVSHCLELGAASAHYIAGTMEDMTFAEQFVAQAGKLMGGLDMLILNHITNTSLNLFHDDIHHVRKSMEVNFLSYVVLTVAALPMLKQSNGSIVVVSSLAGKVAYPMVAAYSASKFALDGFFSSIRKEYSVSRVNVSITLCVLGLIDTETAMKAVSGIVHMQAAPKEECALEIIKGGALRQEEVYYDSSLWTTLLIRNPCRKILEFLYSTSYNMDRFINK
UniProt Q9NNX6, sequence (whole entry, looked up): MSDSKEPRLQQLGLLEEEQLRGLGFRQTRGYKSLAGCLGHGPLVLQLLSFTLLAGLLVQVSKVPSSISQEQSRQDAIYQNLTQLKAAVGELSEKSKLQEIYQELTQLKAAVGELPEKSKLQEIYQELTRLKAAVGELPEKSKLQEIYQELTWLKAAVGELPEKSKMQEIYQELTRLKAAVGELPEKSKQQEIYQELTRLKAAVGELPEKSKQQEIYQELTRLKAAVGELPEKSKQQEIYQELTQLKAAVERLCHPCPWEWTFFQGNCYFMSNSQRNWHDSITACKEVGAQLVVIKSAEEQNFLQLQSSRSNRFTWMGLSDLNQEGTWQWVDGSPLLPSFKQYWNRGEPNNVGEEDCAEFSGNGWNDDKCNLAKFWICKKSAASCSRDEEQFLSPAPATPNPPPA
UniProt O35433, sequence (whole entry, looked up): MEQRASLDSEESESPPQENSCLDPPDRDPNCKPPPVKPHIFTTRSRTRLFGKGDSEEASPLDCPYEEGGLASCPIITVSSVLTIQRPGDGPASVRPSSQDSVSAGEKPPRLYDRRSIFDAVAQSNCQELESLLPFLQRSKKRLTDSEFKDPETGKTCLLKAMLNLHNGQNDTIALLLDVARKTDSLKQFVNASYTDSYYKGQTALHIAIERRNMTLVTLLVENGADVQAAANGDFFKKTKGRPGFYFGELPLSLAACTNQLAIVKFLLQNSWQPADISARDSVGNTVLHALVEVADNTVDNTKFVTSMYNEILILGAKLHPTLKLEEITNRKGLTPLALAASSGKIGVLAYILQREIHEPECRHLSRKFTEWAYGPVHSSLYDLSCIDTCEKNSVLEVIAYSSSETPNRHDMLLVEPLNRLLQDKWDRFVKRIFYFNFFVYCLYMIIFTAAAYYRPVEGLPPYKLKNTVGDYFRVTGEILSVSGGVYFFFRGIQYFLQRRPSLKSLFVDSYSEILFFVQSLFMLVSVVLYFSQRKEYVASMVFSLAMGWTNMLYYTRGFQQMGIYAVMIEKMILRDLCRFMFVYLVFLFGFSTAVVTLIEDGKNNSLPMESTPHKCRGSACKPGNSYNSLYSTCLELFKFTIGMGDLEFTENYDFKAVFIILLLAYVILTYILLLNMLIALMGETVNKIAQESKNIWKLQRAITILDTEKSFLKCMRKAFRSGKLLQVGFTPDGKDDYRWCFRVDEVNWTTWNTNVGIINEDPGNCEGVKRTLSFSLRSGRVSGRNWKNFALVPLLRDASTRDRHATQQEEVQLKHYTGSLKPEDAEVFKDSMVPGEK
UniProt P27694, sequence (whole entry, looked up): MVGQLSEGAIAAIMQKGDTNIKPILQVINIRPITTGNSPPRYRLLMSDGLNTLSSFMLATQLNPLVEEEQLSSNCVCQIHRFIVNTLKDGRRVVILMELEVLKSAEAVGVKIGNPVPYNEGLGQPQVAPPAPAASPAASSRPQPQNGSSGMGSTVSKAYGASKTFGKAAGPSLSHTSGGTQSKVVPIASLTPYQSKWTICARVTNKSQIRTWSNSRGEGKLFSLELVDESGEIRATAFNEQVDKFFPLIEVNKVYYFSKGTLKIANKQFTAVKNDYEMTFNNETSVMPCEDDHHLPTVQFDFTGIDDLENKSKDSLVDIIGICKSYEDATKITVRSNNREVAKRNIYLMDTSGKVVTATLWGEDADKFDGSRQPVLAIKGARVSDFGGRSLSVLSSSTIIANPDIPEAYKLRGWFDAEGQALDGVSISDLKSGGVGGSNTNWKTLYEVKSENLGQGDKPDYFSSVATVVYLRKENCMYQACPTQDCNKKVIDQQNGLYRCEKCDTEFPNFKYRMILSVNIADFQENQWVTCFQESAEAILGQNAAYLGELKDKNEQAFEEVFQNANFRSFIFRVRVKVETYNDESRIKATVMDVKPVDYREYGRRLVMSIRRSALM
UniProt O60235, sequence (whole entry, looked up): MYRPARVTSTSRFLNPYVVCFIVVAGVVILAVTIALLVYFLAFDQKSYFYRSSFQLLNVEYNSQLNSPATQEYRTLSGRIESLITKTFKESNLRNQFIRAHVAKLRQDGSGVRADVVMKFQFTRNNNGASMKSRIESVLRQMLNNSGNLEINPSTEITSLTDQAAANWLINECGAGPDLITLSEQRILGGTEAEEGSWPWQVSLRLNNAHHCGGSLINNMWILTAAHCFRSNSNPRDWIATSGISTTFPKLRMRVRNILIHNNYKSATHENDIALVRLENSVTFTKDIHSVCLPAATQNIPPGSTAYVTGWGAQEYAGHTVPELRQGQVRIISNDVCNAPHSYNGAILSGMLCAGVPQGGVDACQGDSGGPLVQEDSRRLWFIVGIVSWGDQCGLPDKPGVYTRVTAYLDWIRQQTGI
UniProt Q8TD43, sequence (whole entry, looked up): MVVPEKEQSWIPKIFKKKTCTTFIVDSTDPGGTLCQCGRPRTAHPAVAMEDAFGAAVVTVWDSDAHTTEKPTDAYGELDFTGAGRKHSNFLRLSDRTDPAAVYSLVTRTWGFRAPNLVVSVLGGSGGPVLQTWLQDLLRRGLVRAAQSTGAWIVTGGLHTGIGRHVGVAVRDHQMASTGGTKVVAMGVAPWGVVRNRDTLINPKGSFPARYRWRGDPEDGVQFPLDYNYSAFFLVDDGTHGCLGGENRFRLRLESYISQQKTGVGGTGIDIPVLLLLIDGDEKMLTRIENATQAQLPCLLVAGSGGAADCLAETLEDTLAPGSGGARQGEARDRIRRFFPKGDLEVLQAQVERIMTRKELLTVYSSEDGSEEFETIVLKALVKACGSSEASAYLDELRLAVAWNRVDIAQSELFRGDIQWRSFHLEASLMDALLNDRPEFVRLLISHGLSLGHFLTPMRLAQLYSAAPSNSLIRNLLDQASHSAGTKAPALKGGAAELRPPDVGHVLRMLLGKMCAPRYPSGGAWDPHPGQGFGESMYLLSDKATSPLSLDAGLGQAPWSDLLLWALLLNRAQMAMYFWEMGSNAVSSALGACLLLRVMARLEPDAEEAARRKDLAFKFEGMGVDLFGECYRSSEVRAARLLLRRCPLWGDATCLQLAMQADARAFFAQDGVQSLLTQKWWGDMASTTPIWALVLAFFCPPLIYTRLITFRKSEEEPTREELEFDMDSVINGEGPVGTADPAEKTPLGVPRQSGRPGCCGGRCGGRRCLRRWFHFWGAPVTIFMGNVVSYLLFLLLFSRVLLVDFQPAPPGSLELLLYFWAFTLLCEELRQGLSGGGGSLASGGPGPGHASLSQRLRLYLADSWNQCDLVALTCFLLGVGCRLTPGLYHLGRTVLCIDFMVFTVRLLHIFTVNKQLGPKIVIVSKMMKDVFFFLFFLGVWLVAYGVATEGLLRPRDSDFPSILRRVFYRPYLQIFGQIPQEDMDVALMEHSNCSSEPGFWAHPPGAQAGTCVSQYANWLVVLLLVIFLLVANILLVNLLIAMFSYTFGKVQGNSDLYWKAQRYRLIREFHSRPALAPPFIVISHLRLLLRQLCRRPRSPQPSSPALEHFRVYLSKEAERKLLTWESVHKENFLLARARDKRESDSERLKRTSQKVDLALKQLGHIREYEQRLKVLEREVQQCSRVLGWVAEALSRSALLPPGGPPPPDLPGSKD
UniProt P11362, sequence (whole entry, looked up): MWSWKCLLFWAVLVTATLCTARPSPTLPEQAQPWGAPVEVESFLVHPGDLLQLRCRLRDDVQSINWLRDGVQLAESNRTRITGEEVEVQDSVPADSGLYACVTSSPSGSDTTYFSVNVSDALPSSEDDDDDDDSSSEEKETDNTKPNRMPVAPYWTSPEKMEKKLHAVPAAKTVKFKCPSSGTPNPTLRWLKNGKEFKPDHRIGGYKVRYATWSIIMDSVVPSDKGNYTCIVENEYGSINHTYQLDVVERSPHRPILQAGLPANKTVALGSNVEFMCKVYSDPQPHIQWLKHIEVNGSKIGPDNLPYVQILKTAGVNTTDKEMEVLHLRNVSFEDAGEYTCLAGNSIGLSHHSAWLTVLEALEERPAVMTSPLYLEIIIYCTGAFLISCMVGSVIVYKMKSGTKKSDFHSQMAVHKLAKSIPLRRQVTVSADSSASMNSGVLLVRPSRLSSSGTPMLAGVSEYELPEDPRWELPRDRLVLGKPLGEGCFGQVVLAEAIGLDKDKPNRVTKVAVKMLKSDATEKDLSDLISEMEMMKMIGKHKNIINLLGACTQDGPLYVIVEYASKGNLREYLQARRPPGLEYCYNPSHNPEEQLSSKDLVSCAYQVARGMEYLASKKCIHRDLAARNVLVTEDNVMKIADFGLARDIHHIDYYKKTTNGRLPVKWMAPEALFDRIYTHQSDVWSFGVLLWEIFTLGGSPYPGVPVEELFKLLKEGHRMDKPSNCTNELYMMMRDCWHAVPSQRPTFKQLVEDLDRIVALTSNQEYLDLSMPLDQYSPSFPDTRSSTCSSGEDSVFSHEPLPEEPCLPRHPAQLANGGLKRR
UniProt P28236, sequence (whole entry, looked up): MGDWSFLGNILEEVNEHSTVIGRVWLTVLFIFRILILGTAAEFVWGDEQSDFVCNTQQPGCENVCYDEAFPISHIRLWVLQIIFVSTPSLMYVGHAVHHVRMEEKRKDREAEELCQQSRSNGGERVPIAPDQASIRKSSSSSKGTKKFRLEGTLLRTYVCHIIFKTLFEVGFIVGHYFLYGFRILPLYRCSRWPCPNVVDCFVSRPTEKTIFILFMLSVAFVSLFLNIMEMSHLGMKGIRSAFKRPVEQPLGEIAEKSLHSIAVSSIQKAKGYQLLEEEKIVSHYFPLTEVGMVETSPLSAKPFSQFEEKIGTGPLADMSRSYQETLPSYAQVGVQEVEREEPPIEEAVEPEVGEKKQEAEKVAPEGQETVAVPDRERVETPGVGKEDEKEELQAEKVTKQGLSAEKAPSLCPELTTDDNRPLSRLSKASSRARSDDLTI

The IC50 of `O=C(O)c1ccccc1NCc1ccc(Cl)cc1Cl` is reported as 5.9 µM (Transient receptor potential cation channel subfamily M member 4 (TRPM4, Homo sapiens, UniProt Q8TD43); ion flux, inhibitor, fluorescence).
`O=C(O)[C@@H]1Cc2c([nH]c3ccccc23)[C@@H](c2ccc(Br)cc2Br)N1` has an IC50 of 0.084 ± 0.014 µM (MEP cytidylyltransferase IspD (Plasmodium falciparum, UniProt Q8I273); enzyme activity, inhibitor, fluorimetric pyrophosphate; 60 nM enzyme).
The IC50 of `COc1cc(/C=C/c2cc(/C=C/c3ccc(O)c(OC)c3)n(C(N)=O)n2)ccc1O` is reported as 32 µM (Sterol carrier protein 2 (Helicoverpa armigera, UniProt K7NSY9); displacement of 1,8-ANS, fluorescence; pH 7.0, 25 °C, added: 1,8-ANS 15 µM).
`OC(c1ccccc1)(c1cccs1)c1ccccc1Cl` (centres unmarked) gave an IC50 of 2 µM (Gap junction alpha-8 protein (Gja8, Mus musculus, UniProt P28236); gap junction current, inhibitor, dual whole-cell voltage clamp; transfected mouse N2a cell pairs).
`Cc1cc([N+](=O)[O-])cn(CC(=O)c2cc3cc(Cl)ccc3[nH]2)c1=O` gave an IC50 of 15.9 ± 1.4 µM (Replication protein A 70 kDa DNA-binding subunit (RPA1, Homo sapiens, UniProt P27694); inhibitor, FRET).
With `CC(C)c1ccc(C(=O)Nc2ccc(CN)cc2)c(O)c1` the IC50 was 11.6 ± 0.6 µM (Transmembrane protease serine 11D (TMPRSS11D, Homo sapiens, UniProt O60235); enzyme activity, inhibitor; 15 min preincubation, added: Boc-VPR-AMC 100 µM).
`CC(=O)SCC(=O)c1ccc(NS(=O)(=O)c2ccc(OCCCN(C)C)cc2)nc1` gave an IC50 of 0.41 µM (HDAC (Lucilia cuprina egg nuclear extract); enzyme activity, inhibitor, fluorometric).
With `C=CC(=O)N1CCc2ccc(-n3c(=O)ccc4cnc5ccc(-c6cnn(C)c6)cc5c43)cc21` the IC50 was greater than 10 µM (Tyrosine-protein kinase SYK (SYK, Homo sapiens, UniProt P43405); enzyme activity, inhibitor).
`Cc1cc2c(NC(=O)N[C@@H]3CC(C)(C)Oc4cc(C(F)(F)F)ccc43)c(C)ccc2cn1` has an IC50 of 0.0727 ± 0.008 µM (Transient receptor potential cation channel subfamily V member 1 (Trpv1, Rattus norvegicus, UniProt O35433); acid-evoked calcium influx, antagonist; HEK293, rat; pH 5).
`CC(=O)Nc1nnc([S+]([O-])CC(=O)C23CC4CC(CC(C4)C2)C3)s1` (centres unmarked) has an IC50 of 0.333 µM (11-beta-hydroxysteroid dehydrogenase 1 (HSD11B1, Homo sapiens, UniProt P28845); enzyme activity in cells, inhibitor).
The IC50 of `COC(=O)[C@H]1C[C@H](OCCCl)[C@@H](O[C@H]2O[C@H](CO)[C@@H](O)[C@H](O)[C@@H]2n2cc(CN)nn2)C[C@@H]1C(=O)OC` is reported as 108 µM (CD209 antigen (CD209, Homo sapiens, UniProt Q9NNX6); cell-free assay, SPR).
For `O=c1cc(-c2cccc(O)c2)oc2ccc3ccccc3c12`, the IC50 was 18.7 µM (Kynurenine 3-monooxygenase (KMO, Homo sapiens, UniProt O15229); enzyme activity, inhibitor, absorbance).
`COCCN1CCc2c(Cc3ccc(Cl)cc3)[nH]c3c(OC)ccc(c23)C1=O` gave an IC50 of 0.01 µM (cGMP-specific 3',5'-cyclic phosphodiesterase (PDE5A, Homo sapiens, UniProt O76074); enzyme activity, inhibitor).
`O=c1c(OCc2ccccc2)c(-c2ccc([N+](=O)[O-])cc2)oc2ccccc12` has an IC50 of 0.37 ± 0.13 µM (β-glucosidase; enzyme activity, inhibitor).
`CCCN(CC(=O)N(CCC)CC(=O)N(CCC)CC(=O)N(CCC)CC(=O)N(CCC)CC(=O)N(CCC)CC(=O)N(CCC)CC(=O)N(CCC)CC(=O)N(CC(N)=O)Cc1cn(CCCNC(=O)CCCOc2cccc(-c3nc4ccc(-c5nc6ccc(N7CCN(C)CC7)cc6[nH]5)cc4[nH]3)c2)nn1)C(=O)CNCc1cn(CCCNC(=O)CCCOc2cccc(-c3nc4ccc(-c5nc6ccc(N7CCN(C)CC7)cc6[nH]5)cc4[nH]3)c2)nn1` gave an IC50 of greater than 30 µM (MBNL1–r(CUG)109 complex; MBNL1 displacement; added: bulk yeast tRNA competitor).
The IC50 of `COc1cc2nccc(Oc3ccc(NC(=S)NCCCO)c(Cl)c3)c2cc1C(N)=O` is reported as 1.22 µM (Fibroblast growth factor receptor 1 (FGFR1, Homo sapiens, UniProt P11362)).
For `Oc1c(C(Nc2nc3ccccc3s2)c2cccc(OCc3ccccc3)c2)ccc2cccnc12` (centres unmarked), the IC50 was 2.39 ± 0.04 µM (Genome polyprotein, NS2B-NS3 protease (GP1, West Nile virus, UniProt Q9Q6P4); enzyme activity, inhibitor; 0.1% CHAPS, added: tetrapeptide substrate).
